Assay results from different studies.
Each numbered part is a random draw from the data of one study; scales do not carry over between parts.

Series 1 — method: protein-binding microarray; molecule type: double-stranded DNA, one strand shown; matrix: in vitro; concentration: 2200 nM top; setting: 60-bp whole probe; together with: salmon DNA 0.4 mg/ml; relative to: random background probes; direction: higher = stronger binding; shared flanks, not repeated: GCCTAGCAC … GTCTTGATTCGCTTGACGCTGCTG
Target: Interferon regulatory factor 7, full length, phosphomimetic (IRF7, Homo sapiens, UniProt Q92985, residues 1-503, S471D/S472D/S475D/S476D/S477D/S483D/S484D/S487D)
UniProt Q92985, sequence (whole entry, unmodified, looked up): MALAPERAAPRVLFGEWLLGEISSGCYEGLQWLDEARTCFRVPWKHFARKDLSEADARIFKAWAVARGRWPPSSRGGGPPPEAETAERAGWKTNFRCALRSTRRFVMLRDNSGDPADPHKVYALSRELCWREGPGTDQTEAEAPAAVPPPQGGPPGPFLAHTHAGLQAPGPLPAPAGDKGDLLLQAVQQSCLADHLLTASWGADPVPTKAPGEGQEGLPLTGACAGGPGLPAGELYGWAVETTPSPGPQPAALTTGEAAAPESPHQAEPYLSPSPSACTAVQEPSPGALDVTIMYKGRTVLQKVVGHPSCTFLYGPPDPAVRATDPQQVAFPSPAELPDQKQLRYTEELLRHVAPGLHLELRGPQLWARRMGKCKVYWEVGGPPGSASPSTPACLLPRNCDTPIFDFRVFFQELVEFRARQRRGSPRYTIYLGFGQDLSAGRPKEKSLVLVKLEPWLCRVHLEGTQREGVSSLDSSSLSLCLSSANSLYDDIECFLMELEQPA
| Sequence | fitted relative affinity |
| --- | --- |
| TTACCCCATCCCCCTTTTCTGTGCTAG | 1.15 z-score |
| TTCGATATCGGGTATCGATTAGTGCTA | 0.846 z-score |
| TAATTTCCATTTTCTAAATTCGTGCTA | 4.13 z-score |
| GAAGGTTTCGACTTTCGGGACGTGCTA | 8.17 z-score |
| CCCAGGACCCTGGAACTGGCGTGCTAG | -1.08 z-score |
| GACGGTTTCGGTTCCCGGACGTGCTAG | 13.3 z-score |
| TTAGGTTTCGCGACTGGGTTAGTGCTA | 1.25 z-score |
| TTTGAACTGAGTTTCGATTAGTGCTAG | 3.76 z-score |
| GACGATTGCAGTCTCGAGACGTGCTAG | 0.2 z-score |
| GTTACTTTCTACTTCTCTTTGTGCTAG | 7.56 z-score |
| GACGATATCGGGTATCGAGATGTGCTA | 0.255 z-score |
| TTAGGTCACCTTCTCCTTTAGTGCTAG | 0.848 z-score |
| GACGAACTGAGGTTCGAGACGTGCTAG | -0.164 z-score |
| GACGGTTTCGACTTTGGGGACGTGCTA | 5.73 z-score |
| GACGGTATCGGGCTCGGGACGTGCTAG | -0.514 z-score |
| TTAGATTTCAGAATGGATTAGTGCTAG | -0.171 z-score |
| TTAGGTATCGTGACTGGGTTAGTGCTA | 0.0484 z-score |
| GACGATTTCGGGTTTCTAGACGTGCTA | 4.51 z-score |
| GACGCTTTCCTTTCCCTGACGTGCTAG | 6.37 z-score |

Series 2 — method: RNA Bind-n-Seq; molecule type: RNA; matrix: in vitro; concentration: 200 nM; setting: whole 134-nt RNA, ends assumed; together with: 150 mM KCl; relative to: input library; direction: higher = stronger binding
Target: Fragile X messenger ribonucleoprotein 1, C-terminal low-complexity region (Fmr1, Mus musculus, UniProt P35922)
Shared flanks, not repeated: GGGAGUUCUACAGUCCGACGAUC … UGGAAUUCUCGGGUGUCAAGG
| Sequence | log2 enrichment |
| --- | --- |
| GCAGGAAGUAAAAACAAAUGGAAAUGCUUCGGAUAGUGGCAGGGGUGGGGGUUGCAAAGGAAAGGGUGGGAUGGGAGUGGGUAAAGAGUU | 0.0253 |
| CCUGUGCUACACAUCGUAUGUACCGAAUCGGGUUUUUUGGUUUUUUGGGGUUUUUUGGGGAAAGUAUUAUGUUACGCCGUUCGGAUCUGC | -0.593 |
| AGUCCUGUGCUACACAUCGUAUGUACCGAAUCGGGAAAAAGGGAAAAAGGAAAAAGGGAAAGUAUUAUGUUACGCCGUUCGGAUCUGCAC | -0.608 |
| UUACCGACACCGUAGAACAGAGCAAGAGGAGGAUGAAGAGCUAUUAACAGAAAGCUCCAAAGCAACCAAUGUUUGCACUCGAUUUGAAGA | -0.368 |
| UGGCCUGCACAUUCAGCUGCAUGAUGAAGUUCACUGUCAAGGACUGUGAUCCCACCACUGGGGAGACUGAUGACGAAGGCUAUGAGGAUG | -0.0905 |
| CACAGACAACACGCACCCACACAGACACAGAGGGAAGGGGUUGGGAUGGGGACAGGGUGCUCAGCAGGGCGGGGUAGGACCCCAGCCCCU | 1.34 |
| CUCAAGUCCUGUGCUACACAUCGUAUGUACCGAAUCGGGUGGGUUUGGGAGGGAAAGUAUUAUGUUACGCCGUUCGGAUCUGCACUUCCA | 1.37 |
| ACCAUGCAGGUGGGCAUCUUUGGGAAGUGAGGCAAGGGGGGGAUAGGGAGGGGGGUAACACUUUGGGAACAGGUGGUCCCAGGUCGUUUC | 1.19 |
| UUAGAAGAAGAAGAUGGAGUGUGGGAGAAUGGACUUUCCUAUGAAUGCCGUACUCUGCUUUUCAAAGCAGUUCACAAUCUAUUGGAACGG | -1.46 |

Series 3 — method: RNA Bind-n-Seq; molecule type: RNA; matrix: in vitro; concentration: 365 nM; relative to: no-protein control; direction: higher = stronger binding
Target: RNA binding protein fox-1 homolog 2, RRM domain, GST-SBP tag (RBFOX2, Homo sapiens, UniProt O43251-10, residues 100-194)
Setting: natural RNA segment, single round, ends assumed
Shared flanks, not repeated: GGGAGUUCUACAGUCCGACGAUC … UGGAAUUCUCGGGUGCCAA
| Sequence | RBNS enrichment (R) |
| --- | --- |
| AUGUUUGUGGUGGGGCCUCAUGGUGCCUAGGAGGAGAUAAAGAUGAGGAGGUUUUUCCUUAUUGUAUAAAUGAAUAUUUGUAUGAUUAAAUUAACACACACACCAAAAAA | 0.41 |
| UCUUCCUCCCUUCCUCCCCCUGCCUUCCUCUUAACCUAUGUGCUCAUCCUUGCUACUUGAGGCUGUUAUUUCCCUCCGAGUAUUUAAGGAGCCCAAACACCUUGGUCUUC | 0.634 |
| CCAGUGACCUGCUAAAAAGUCAACUAGCUCAGAGUUUUGCUGGCCUUUAUGUGAGAAAUCCAAGAAAGUGUUCACUUUUUUGGGAUGCGAGACUCCUUGGUCUCAUUUGC | 0.366 |
| CCAGAAGGCCCGGGGGUCUCCGAGGUGCCGGUUAGGAGUUUGAACCCCCCCCACUCUGCAGAGGGAAGCGGGGACAAUGCCGGGGUUUCAGGCAGGAGACACGAGGAGGG | 0.768 |
| UACUUAUGCAUGCUAAAUUAUUAUUUAGCUUUCCCAUCCCCCAGGGUGGAGAUGGAAUGUAAAAUAAUUGGUUUUUUUACUAGAUGAGAGUGAGGGGGGGGGAGAAACAC | 10.9 |
| GGAGGCUGAGGCAGGAGAAUCUCAAGUUCAGGGCCAGCCUGGGCCACAUACUGAUACCCUGUCUCUCAAAGGGAGAAAAAUUACUUAGGUAUGUCAGCACUUUUGUCCUG | 0.476 |
| UGCCGUCUGGCAUUUUAGUUUAAUACAAACUAAUGAUUGCAUUUGAAAGAGAUUCUUGACCUUAUUUCUAAACGUCUAGAGCUCUGAAAUGUCUUGAUGGAAGGUAUUAA | 0.412 |
| CUCACUCAGCCUCCUCAGAACACAAGAUGGCCCGCAGAGGACGGCAGUUACCAGCCUCCUUCCUGCUUCUCUGCCAGGCCACAGAGAAAGCCUUGGAAGGCUGCUUGCUC | 0.543 |

Series 4 — method: protein-binding microarray; molecule type: double-stranded DNA, one strand shown; matrix: in vitro; concentration: not given; direction: higher = stronger binding
Target: Protein max, full length (MAX, Homo sapiens, UniProt P61244-2, residues 1-151)
Setting: k-mer, scored over probes, only values ≥0.25
| Sequence | E-score |
| --- | --- |
| CACCATGG | 0.296 |
| CATGGTGG | 0.349 |
| ACACGGGG | 0.411 |
| GCGCATGA | 0.384 |
| CGTGACTC | 0.337 |
| ACGTGCAG | 0.446 |
| ACGCGGTG | 0.327 |
| CACGCGGC | 0.473 |
| CGTGCTCC | 0.372 |
| CGTGAACA | 0.281 |
| AAACGTGA | 0.385 |
| GTGTCAAA | 0.278 |
| AACATGGG | 0.292 |
| CACATGCC | 0.464 |
| CAGATGGC | 0.299 |
| GCGCACGA | 0.366 |
| ATGTACAC | 0.262 |
| AATGTGTG | 0.277 |
| ACATGGAA | 0.358 |
| GCATGGCA | 0.412 |
